Measurements gathered from unrelated publications.
Numbered parts are unrelated; each lists some results of a single study.
Chain of UniProt P42681 (whole entry, looked up): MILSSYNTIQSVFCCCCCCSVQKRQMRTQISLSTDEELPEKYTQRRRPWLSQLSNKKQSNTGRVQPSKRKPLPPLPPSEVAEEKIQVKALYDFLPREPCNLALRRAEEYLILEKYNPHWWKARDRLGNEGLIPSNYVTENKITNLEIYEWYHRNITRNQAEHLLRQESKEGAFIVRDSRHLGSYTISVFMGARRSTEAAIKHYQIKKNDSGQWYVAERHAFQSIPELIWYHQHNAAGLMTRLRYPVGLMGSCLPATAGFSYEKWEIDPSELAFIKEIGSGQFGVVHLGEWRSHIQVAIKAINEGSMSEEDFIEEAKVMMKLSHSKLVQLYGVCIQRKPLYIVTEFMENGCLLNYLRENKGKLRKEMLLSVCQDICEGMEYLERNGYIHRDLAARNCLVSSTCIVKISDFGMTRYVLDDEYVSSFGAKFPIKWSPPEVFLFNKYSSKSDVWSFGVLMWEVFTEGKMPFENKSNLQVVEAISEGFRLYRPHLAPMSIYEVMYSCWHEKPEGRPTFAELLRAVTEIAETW
Chain of UniProt O75676 (whole entry, looked up): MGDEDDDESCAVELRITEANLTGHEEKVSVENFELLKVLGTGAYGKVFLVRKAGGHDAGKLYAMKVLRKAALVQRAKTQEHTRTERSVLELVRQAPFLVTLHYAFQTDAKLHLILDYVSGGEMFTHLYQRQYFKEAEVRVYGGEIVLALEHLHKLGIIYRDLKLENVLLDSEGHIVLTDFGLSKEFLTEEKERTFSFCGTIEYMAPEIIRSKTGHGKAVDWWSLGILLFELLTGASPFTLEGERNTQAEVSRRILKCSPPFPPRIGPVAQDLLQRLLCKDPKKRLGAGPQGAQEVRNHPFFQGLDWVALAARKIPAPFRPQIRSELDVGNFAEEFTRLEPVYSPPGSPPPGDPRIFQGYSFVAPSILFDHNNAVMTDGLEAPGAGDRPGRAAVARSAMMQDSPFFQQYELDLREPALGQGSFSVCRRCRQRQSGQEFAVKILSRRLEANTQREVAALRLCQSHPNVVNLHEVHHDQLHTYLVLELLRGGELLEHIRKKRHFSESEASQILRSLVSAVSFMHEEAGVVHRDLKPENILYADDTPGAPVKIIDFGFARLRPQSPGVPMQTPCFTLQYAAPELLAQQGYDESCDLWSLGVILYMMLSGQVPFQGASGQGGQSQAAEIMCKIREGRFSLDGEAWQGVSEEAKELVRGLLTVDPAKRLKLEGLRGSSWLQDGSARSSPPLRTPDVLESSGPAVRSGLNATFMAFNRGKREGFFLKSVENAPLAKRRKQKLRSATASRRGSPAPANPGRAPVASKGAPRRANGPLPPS
Chain of UniProt Q16566 (whole entry, looked up): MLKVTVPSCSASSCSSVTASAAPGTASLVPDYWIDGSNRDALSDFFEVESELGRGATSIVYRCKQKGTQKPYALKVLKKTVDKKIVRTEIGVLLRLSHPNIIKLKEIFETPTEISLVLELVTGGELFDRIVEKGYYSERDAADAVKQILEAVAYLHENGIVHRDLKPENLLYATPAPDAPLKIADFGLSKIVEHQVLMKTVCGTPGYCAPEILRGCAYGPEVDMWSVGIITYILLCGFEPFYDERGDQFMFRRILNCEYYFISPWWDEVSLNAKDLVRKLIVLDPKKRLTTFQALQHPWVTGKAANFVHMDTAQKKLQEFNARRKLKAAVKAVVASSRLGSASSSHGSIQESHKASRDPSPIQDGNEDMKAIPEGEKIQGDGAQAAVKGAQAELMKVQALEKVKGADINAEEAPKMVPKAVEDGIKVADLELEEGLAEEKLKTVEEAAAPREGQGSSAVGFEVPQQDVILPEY
Chain of UniProt P50750 (whole entry, looked up): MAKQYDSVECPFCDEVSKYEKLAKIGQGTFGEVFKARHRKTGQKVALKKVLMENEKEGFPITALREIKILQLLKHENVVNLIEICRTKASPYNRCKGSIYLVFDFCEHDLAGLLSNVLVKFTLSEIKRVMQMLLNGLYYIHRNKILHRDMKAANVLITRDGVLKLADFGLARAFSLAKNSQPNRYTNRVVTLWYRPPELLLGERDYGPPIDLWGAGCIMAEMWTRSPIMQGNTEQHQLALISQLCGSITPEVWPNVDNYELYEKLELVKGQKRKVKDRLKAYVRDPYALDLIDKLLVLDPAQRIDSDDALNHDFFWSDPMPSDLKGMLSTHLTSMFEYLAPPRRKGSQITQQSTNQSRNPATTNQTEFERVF
Chain of UniProt P32298 (whole entry, looked up): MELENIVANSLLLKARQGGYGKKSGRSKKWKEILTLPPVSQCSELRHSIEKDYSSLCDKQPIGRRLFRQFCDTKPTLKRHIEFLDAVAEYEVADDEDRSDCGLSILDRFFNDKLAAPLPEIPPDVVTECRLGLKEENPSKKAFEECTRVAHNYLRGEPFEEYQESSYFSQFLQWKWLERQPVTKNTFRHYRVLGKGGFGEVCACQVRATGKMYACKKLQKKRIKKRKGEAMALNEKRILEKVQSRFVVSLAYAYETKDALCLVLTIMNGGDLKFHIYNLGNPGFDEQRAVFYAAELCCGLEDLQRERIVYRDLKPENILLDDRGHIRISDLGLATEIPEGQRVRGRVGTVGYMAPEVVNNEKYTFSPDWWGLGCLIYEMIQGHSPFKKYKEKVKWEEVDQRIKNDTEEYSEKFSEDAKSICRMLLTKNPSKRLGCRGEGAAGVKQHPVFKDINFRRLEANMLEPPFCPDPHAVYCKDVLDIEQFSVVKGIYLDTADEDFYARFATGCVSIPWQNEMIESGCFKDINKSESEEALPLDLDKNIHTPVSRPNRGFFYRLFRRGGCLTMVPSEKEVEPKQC
Chain of UniProt P42336 (whole entry, unmodified, looked up): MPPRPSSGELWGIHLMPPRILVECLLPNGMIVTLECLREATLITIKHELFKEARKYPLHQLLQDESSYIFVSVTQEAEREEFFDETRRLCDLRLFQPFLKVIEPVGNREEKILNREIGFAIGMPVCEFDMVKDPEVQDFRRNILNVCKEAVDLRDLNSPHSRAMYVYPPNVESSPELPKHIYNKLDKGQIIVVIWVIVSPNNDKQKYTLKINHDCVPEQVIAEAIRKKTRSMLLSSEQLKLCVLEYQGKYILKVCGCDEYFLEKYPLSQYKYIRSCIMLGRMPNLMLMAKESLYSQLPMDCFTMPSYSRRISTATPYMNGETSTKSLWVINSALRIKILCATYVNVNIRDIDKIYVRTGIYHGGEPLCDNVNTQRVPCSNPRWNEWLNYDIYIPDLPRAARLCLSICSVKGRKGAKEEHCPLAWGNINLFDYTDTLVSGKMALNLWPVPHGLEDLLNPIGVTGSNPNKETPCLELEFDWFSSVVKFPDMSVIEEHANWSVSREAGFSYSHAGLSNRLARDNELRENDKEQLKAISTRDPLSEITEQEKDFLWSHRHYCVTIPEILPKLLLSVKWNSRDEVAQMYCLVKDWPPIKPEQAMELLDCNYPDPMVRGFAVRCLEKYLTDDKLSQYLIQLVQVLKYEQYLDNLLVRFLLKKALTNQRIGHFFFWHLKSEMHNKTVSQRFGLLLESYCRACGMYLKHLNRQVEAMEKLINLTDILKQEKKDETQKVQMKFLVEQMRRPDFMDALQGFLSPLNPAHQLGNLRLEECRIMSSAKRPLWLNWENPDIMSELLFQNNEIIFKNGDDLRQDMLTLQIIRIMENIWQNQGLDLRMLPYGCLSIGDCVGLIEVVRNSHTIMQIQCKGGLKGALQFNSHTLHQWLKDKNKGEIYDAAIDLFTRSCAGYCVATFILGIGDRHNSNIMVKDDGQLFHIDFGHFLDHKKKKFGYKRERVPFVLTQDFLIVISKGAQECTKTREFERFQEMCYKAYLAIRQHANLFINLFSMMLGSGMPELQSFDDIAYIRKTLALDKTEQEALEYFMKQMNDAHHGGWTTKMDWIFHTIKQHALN
Chain of UniProt Q02750 (whole entry, looked up): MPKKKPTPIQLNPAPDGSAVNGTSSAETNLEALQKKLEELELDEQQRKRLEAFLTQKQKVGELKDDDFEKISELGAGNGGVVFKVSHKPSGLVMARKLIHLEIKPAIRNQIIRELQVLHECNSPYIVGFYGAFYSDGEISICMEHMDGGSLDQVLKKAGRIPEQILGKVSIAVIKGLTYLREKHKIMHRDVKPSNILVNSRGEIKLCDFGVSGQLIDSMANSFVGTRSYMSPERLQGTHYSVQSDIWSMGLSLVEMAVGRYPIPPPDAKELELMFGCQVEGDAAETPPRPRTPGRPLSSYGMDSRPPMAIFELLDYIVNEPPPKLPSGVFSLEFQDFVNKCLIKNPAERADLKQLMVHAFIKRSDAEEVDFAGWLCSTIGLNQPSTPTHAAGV
Chain of UniProt P27037 (whole entry, looked up): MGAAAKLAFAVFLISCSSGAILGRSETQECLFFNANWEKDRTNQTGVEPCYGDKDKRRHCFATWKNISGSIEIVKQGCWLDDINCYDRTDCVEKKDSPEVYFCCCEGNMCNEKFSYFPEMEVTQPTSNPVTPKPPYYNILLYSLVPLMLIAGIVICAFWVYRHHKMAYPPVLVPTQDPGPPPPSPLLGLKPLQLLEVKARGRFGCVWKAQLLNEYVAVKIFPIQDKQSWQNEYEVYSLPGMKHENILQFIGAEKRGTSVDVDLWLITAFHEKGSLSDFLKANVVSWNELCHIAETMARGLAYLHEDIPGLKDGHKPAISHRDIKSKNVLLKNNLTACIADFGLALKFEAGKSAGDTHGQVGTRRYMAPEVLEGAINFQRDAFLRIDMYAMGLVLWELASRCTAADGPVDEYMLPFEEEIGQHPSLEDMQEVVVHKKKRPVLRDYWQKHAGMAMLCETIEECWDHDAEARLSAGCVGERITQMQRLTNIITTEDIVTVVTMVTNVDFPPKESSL
Chain of UniProt P06493 (whole entry, looked up): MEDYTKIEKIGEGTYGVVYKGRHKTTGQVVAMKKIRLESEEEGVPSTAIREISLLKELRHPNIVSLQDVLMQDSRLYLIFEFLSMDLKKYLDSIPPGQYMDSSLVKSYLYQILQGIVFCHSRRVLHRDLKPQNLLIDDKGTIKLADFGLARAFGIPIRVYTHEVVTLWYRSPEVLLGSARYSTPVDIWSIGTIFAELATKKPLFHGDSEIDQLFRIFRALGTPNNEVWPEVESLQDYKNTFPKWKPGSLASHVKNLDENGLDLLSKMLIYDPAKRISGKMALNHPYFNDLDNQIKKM

Series 1
SMILES: O=C1c2ccccc2-c2n[nH]c3cccc1c23
Read-out: enzyme activity
Mode: inhibitor
Tested at: 0.5 µM
Relative to: control
The remaining activity was 112% (Hepatocyte growth factor receptor (MET, Homo sapiens, UniProt P08581)).
For Tyrosine-protein kinase TXK (TXK, Homo sapiens, UniProt P42681): remaining activity read 73.4%.
For Discoidin domain-containing receptor 2 (DDR2, Homo sapiens, UniProt Q16832): remaining activity read 102%.
The remaining activity was 96% (Cyclin-dependent kinase 9, with cyclin K (CDK9, Homo sapiens, UniProt P50750)).
It gave 102% for remaining activity (Calcium/calmodulin-dependent protein kinase type 1B (PNCK, Homo sapiens, UniProt Q6P2M8)).
For Mitogen-activated protein kinase 14 (MAPK14, Homo sapiens, UniProt Q16539): remaining activity read 97.9%.
Misshapen-like kinase 1 (MINK1, Homo sapiens, UniProt Q8N4C8) — remaining activity: 67.7%.
It gave 95.8% for remaining activity (Mitogen-activated protein kinase 1 (MAPK1, Homo sapiens, UniProt P28482)).
Ribosomal protein S6 kinase alpha-4 (RPS6KA4, Homo sapiens, UniProt O75676) — remaining activity: 87.4%.
It gave 90.7% for remaining activity (Serine/threonine-protein kinase PAK 3 (PAK3, Homo sapiens, UniProt O75914)).
It gave 59.9% for remaining activity (Serine/threonine-protein kinase MARK2 (MARK2, Homo sapiens, UniProt Q7KZI7)).
Dual specificity protein kinase CLK3 (CLK3, Homo sapiens, UniProt P49761) — remaining activity: 38.6%.
For Dual specificity protein kinase CLK4 (CLK4, Homo sapiens, UniProt Q9HAZ1): remaining activity read 75.5%.
It gave 89.9% for remaining activity (Vascular endothelial growth factor receptor 2 (KDR, Homo sapiens, UniProt P35968)).
It gave 96.4% for remaining activity (Dual specificity mitogen-activated protein kinase kinase 1 (MAP2K1, Homo sapiens, UniProt Q02750)).
It gave 98.2% for remaining activity (Rho-associated protein kinase 1 (ROCK1, Homo sapiens, UniProt Q13464)).
The remaining activity was 96.6% (G protein-coupled receptor kinase 4 (GRK4, Homo sapiens, UniProt P32298)).
It gave 85.6% for remaining activity (Cyclin-dependent kinase 1, with cyclin A (CDK1, Homo sapiens, UniProt P06493)).
For RAC-beta serine/threonine-protein kinase (AKT2, Homo sapiens, UniProt P31751): remaining activity read 96%.
The remaining activity was 54% (MAP/microtubule affinity-regulating kinase 4 (MARK4, Homo sapiens, UniProt Q96L34)).
Mitogen-activated protein kinase 11 (MAPK11, Homo sapiens, UniProt Q15759) — remaining activity: 92.8%.
Calcium/calmodulin-dependent protein kinase type IV (CAMK4, Homo sapiens, UniProt Q16566) — remaining activity: 92.9%.
cGMP-dependent protein kinase 2 (PRKG2, Homo sapiens, UniProt Q13237) — remaining activity: 93%.
It gave 84.3% for remaining activity (Serine/threonine-protein kinase Nek3 (NEK3, Homo sapiens, UniProt P51956)).

Series 2
Target: His6 tag
Technique: AlphaScreen counter screen
Tested at: concentration not given
For `CC(=O)CCCCn1c(=O)c2c(ncn2C)n(C)c1=O`, the inhibition was 6%.
For `O=c1[nH]c2ncc(-c3cccnc3)nc2n1C1CCCC1`, the inhibition was 7.25%.
`CC(C)Oc1ccc(NC(=O)Nc2ccc(Cl)c(Cl)c2)cc1` gave an inhibition of 8.75%.
`N#CC(=C1CCCC1)c1nc2ccccc2s1` gave an inhibition of 3.55%.
With `Nc1nc(Nc2cccc(C(F)(F)F)c2)sc1C(=O)c1ccccc1` the inhibition was -0.1%.
The inhibition of `O=C(O)CCSc1nnc2c(n1)[nH]c1ccccc12` is reported as -8.8%.
With `COc1cccc(NC(=O)CSc2ccc3nnc(-c4ccc(Cl)cc4)n3n2)c1` the inhibition was -6.2%.
`CC=CCn1cnc2c1c(=O)n(C)c(=O)n2C` gave an inhibition of -10.9%.

Series 3
SMILES: O=C(N1CCS(=O)(=O)CC1)N1C[C@H](c2ccc(OC(F)(F)F)cc2)C[C@H](c2nc(C3CC3)no2)C1
Technique: competition with immobilised ligand
Tested at: 1 µM
For Serine/threonine-protein kinase Chk1 (CHEK1, Homo sapiens, UniProt O14757); cell-free assay: remaining binding read 100%.
Serine/threonine-protein kinase ULK3 (ULK3, Homo sapiens, UniProt Q6PHR2); cell-free assay — remaining binding: 93%.
Serine/threonine-protein kinase TNNI3K (TNNI3K, Homo sapiens, UniProt Q59H18); cell-free assay — remaining binding: 100%.
The remaining binding was 82% (Ribosomal protein S6 kinase alpha-4, C-terminal kinase domain (RPS6KA4, Homo sapiens, UniProt O75676); cell-free assay).
For Serine/threonine-protein kinase Sgk3 (SGK3, Homo sapiens, UniProt Q96BR1); cell-free assay: remaining binding read 100%.
It gave 98% for remaining binding (Activin receptor type-2A (ACVR2A, Homo sapiens, UniProt P27037); cell-free assay).
Myotonin-protein kinase (DMPK, Homo sapiens, UniProt Q09013); cell-free assay — remaining binding: 100%.
For Phosphatidylinositol 4,5-bisphosphate 3-kinase catalytic subunit alpha isoform (PIK3CA, Homo sapiens, UniProt P42336, C420R); cell-free assay: remaining binding read 100%.
It gave 100% for remaining binding (Tyrosine-protein kinase JAK3, JH1 (JAK3, Homo sapiens, UniProt P52333); cell-free assay).
Inhibitor of nuclear factor kappa-B kinase subunit epsilon (IKBKE, Homo sapiens, UniProt Q14164); cell-free assay — remaining binding: 100%.
Serine/threonine-protein kinase Nek11 (NEK11, Homo sapiens, UniProt Q8NG66); cell-free assay — remaining binding: 100%.
The remaining binding was 100% (Tyrosine-protein kinase TXK (TXK, Homo sapiens, UniProt P42681); binding).

Series 4
Cell line: mouse MPNST tumor cells
Technique: high-content nuclear imaging
Measured: cell number
Tested at: 10 µM
Time: 12 h
Setting: mean of 2 replicates
Relative to: plate mean
Reading: higher = more cells
The nuclei count of `C[C@H](NC[C@H](O)CP(=O)(O)Cc1ccccc1)c1ccc(Cl)c(Cl)c1` is reported as 1.79 z-score.
With `CCCCNNC(=O)c1ccc(Br)cc1` the nuclei count was 1.26 z-score.
`O=c1[nH]c2ccc(-c3c(Cl)cccc3OC(F)(F)F)cc2[nH]1` has a nuclei count of -0.256 z-score.
The nuclei count of `COc1cc(C)nc(-n2nc(C)cc2OC)n1` is reported as -1.07 z-score.
The nuclei count of `CCOC(=O)O[C@]1(C(=O)OCCl)CC[C@H]2[C@@H]3CCC4=CC(=O)C=C[C@]4(C)[C@H]3[C@@H](O)C[C@@]21C` is reported as 1.38 z-score.
The nuclei count of `O=C(NC/C=C/CN1CCN(c2cccc(Cl)c2Cl)CC1)c1ccc(-c2ccccn2)cc1` is reported as 0.0685 z-score.
For `Cn1cc(-c2[nH]c3cc(NC(=O)[C@H](N)C4CCCCC4)cc4c3c2C=NNC4=O)cn1`, the nuclei count was -2.38 z-score.

Some of these lines once more (series 1):
It gave 95.8% for remaining activity (Mitogen-activated protein kinase 1 (MAPK1, Homo sapiens, UniProt P28482)).
Misshapen-like kinase 1 (MINK1, Homo sapiens, UniProt Q8N4C8) — remaining activity: 67.7%.
cGMP-dependent protein kinase 2 (PRKG2, Homo sapiens, UniProt Q13237) — remaining activity: 93%.
